Results pooled from the literature.
Lines come from different studies, so protocols differ. Numbers after ± are the reported error.
Target: Tyrosine-protein kinase ITK/TSK (ITK, Homo sapiens, UniProt Q08881)
Residues used in one study (Q08881 1-620): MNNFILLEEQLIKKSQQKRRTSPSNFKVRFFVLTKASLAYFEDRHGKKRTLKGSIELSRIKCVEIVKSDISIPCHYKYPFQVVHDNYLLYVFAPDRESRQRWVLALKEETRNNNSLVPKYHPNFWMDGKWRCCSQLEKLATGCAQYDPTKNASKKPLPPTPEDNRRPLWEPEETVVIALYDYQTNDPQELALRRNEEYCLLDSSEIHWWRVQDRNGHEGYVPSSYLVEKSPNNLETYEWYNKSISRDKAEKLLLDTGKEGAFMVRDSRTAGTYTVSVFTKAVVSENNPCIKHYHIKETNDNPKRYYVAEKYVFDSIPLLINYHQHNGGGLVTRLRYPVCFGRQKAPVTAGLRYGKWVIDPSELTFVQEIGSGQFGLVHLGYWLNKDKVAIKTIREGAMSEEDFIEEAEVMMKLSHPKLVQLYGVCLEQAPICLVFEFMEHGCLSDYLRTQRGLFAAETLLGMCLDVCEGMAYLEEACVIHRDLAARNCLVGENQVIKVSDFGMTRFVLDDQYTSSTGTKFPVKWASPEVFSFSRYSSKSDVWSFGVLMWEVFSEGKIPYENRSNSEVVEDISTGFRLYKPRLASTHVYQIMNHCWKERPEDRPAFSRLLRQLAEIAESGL

Structure (SMILES)	assay	test system	conditions	scale	endpoint	value
CNc1ncc2c(/C=C/C(=O)N3CCC(OC)CC3)nn(Cc3cccc(C(F)(F)F)c3)c2n1	kinase activity, inhibitor		1 µM	baseline: untreated control	remaining activity	83%
C=CC(=O)N1CCC(C(=O)NCC(=O)N2CCN(c3nc(-c4cnc(N)nc4C(F)F)nc(N4CCOCC4)n3)CC2)CC1	KINOMEscan		1 µM		remaining binding	99%
[2H]c1cc(C)c(NC(=O)c2cnc(Nc3cc(N4CCC(O)CC4)nc(C)n3)s2)c(Cl)c1			0.001 µM		inhibition	< 50%
COc1cc(N2CCN(C)CC2)ccc1Nc1nc(N)n(C(=S)NCc2c(Cl)cccc2Cl)n1	enzyme activity		10 µM	baseline: control	remaining activity	0.5%
C=CC(=O)N1CCC(COCC(=O)N2CCN(c3nc(-c4cnc(N)nc4C(F)F)nc(N4CCOC[C@@H]4C)n3)CC2)CC1	KINOMEscan		1 µM	baseline: DMSO control	remaining binding	66%
CC#CC(=O)N1CCC[C@H]1c1nc(-c2ccc(C(=O)Nc3ccccn3)cc2)c2c(N)nccn12	kinase activity, inhibitor, HotSpot radiometric		100 nM, added: ATP 10 µM		remaining activity	97.5 ± 1.3%
COc1cc(F)ccc1-c1ncnc(Nc2cccc(C[S@](C)(=N)=O)c2)n1	kinase activity		10 µM, added: 10 µM ATP		remaining activity	83%
C[C@@H](c1ccc(-n2cnc3c(N)ncnc32)cc1)N1CCc2nn(C)c(Cc3ccccc3)c2C1=O	KINOMEscan		0.1 µM	baseline: DMSO control	remaining binding	67%
C1=C/COCc2cc(ccc2OCCN2CCCC2)Nc2nccc(n2)-c2cccc(c2)COC/1			concentration not given		percent of control	90%
O=C(NC1CCC1)c1ccc2nc(-c3cccc(NS(=O)(=O)NCCN4CCCCC4)c3)cn2c1	enzyme activity		10 µM		remaining activity	100%
CCCOc1ccc(OC)c(F)c1C(=O)c1ccc(C(=O)N[C@@H]2CNC[C@H]2NC(=O)c2ccc3[nH]ncc3c2)cc1	enzyme activity		10 µM		remaining activity	95%
COc1cc(C)c(Sc2cnc(NC(=O)c3ccc(N4CCN(CCCCCCCNC(=O)COc5cccc6c5C(=O)N(C5CCC(=O)NC5=O)C6=O)CC4)cc3)s2)cc1C(=O)N1CCN(C(C)=O)CC1 (stereo not shown)	degrader	HuT78 or DERL-2	16 h		Dmax concentration	~1 µM
COc1ccc(F)cc1C(=O)NCc1ccc(-c2nn([C@@H](C)C(F)(F)F)c(N)c2C(N)=O)cc1	kinase activity, inhibitor, HotSpot radiometric		100 nM, added: ATP 10 µM		remaining activity	106 ± 3.9%
Cc1cc(Nc2cc(N3CCN(C)CC3)nc(Sc3ccc(NC(=O)C4CC4)cc3)n2)[nH]n1	kinase activity, KinaseProfiler		0.03 µM, species human	baseline: control	remaining activity	97%
C=CC(=O)N1CCC([C@@H]2CCNc3c(C(N)=O)c(-c4ccc(Oc5ccccc5)cc4)nn32)CC1	kinase activity, inhibitor, HotSpot radiometric		100 nM, added: ATP 10 µM		remaining activity	85.2%
CCN(CC)c1ccc(C2=NNC(=O)CC2C)cc1[N+](=O)[O-] (stereo not shown)	enzyme activity, inhibitor		10 µM	baseline: vehicle	remaining activity	97%
